Published values gathered from unrelated publications.
Compare with care: the assays were run in different laboratories. ± gives the spread as reported.
CSNK1A1/CRBN: Cereblon/Casein kinase I alpha (CSNK1A1/CRBN, Homo sapiens, UniProt P48729+Q96SW2)
Chain of UniProt Q96SW2 (whole entry, looked up): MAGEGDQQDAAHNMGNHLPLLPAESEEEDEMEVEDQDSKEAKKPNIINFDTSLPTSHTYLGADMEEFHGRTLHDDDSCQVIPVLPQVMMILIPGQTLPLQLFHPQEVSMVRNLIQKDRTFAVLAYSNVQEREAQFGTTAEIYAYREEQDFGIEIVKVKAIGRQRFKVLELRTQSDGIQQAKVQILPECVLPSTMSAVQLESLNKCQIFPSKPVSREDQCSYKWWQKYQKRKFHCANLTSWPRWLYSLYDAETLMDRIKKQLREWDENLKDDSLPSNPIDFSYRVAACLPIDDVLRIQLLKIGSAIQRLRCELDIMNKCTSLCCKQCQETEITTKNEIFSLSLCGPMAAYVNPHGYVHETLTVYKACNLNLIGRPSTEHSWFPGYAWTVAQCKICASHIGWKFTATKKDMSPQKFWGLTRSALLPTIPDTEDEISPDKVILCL
Chain of UniProt P48729 (whole entry, looked up): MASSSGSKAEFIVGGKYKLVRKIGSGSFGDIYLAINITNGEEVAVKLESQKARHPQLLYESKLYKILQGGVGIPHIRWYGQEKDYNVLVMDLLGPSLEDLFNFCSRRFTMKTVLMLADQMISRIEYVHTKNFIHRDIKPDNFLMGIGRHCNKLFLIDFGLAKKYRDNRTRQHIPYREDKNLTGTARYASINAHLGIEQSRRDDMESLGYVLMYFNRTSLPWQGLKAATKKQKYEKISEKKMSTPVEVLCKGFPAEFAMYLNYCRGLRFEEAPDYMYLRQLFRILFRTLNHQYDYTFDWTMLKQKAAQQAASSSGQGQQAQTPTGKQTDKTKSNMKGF
PTH1R: Parathyroid hormone/parathyroid hormone-related peptide receptor (PTH1R, Homo sapiens, UniProt Q03431)
Chain of UniProt Q03431 (whole entry, looked up): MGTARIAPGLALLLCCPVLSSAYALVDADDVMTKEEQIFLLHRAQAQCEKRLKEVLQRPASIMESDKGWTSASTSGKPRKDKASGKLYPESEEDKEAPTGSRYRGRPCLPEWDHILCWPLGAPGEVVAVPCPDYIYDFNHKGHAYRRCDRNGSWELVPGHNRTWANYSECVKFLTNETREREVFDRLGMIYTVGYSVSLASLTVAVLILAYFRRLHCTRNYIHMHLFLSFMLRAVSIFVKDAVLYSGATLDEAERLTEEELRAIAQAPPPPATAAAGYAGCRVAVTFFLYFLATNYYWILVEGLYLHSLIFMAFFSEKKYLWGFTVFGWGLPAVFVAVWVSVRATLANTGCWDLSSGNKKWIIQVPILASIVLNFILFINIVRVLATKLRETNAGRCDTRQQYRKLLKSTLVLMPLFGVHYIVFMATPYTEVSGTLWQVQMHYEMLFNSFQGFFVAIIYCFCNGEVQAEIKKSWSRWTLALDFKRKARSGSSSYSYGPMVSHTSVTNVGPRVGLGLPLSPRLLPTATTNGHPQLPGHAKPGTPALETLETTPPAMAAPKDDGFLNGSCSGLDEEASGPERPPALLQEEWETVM
Chain of UniProt A0A2U7XUH7 (whole entry, looked up): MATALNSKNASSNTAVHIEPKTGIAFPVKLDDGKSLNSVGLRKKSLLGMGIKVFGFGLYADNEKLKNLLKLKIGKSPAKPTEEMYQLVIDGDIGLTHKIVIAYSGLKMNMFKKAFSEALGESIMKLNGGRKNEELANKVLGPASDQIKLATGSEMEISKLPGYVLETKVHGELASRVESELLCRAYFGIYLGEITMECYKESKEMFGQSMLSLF
Chain of UniProt P09429 (whole entry, looked up): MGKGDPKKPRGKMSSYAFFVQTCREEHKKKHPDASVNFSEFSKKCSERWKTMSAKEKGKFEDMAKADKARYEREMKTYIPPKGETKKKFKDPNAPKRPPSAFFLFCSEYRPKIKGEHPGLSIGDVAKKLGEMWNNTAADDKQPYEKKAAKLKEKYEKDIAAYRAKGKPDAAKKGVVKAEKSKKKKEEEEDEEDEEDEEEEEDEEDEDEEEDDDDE
Chain of UniProt P41148 (whole entry, looked up): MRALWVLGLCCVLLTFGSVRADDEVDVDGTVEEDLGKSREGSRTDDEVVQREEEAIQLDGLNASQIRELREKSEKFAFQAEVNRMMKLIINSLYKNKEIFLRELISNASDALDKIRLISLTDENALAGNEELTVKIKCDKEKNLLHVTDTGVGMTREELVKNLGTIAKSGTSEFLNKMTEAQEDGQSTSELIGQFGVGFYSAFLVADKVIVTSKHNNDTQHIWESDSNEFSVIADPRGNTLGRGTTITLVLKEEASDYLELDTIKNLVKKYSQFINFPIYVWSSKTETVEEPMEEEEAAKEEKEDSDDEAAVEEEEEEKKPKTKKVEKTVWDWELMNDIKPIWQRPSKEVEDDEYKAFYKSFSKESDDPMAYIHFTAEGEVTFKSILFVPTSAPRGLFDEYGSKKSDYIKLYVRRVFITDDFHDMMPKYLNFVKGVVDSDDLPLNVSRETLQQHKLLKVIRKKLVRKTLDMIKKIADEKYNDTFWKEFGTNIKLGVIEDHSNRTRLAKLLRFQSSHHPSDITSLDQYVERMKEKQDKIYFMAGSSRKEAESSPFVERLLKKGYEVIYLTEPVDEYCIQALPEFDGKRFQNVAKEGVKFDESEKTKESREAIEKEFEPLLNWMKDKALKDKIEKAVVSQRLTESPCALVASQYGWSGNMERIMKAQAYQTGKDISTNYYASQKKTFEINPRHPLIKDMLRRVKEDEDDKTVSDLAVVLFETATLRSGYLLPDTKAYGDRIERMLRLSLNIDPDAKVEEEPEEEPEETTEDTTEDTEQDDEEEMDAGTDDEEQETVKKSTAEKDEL

`O=C1CC[C@H](N2Cc3cc(-c4ccn5nccc5n4)ccc3C2=O)C(=O)N1` gave a DC50 of 0.141 µM (CSNK1A1/CRBN; degrader; MOLT-4 CSNK1A1-HiBiT; 24 h).
`O=C(/C=C/c1ccc(O)cc1)c1c(O)cc(O)cc1O` gave a Kd of 43.6 µM (Chalcone isomerase-like protein 1 (CHIL1, Humulus lupulus, UniProt A0A2U7XUH7); binding, differential scanning fluorimetry).
`C[C@@]1(CO)CC[C@]2(CO)CC[C@]3(C)C(=CCC4[C@@](C)(CCC(=O)O)C([C@@](C)(O)CO)CC[C@]43C)[C@@H]2C1` (some centres unmarked) gave a Kd of greater than 1000 µM (HMGB1 (Homo sapiens, UniProt P09429); binding, BLI).
For `CC[C@H](C)[C@H](NC(=O)[C@H](CCC(=O)O)NC(=O)[C@@H](N)CO)C(=O)N[C@@H](CCC(N)=O)C(=O)N[C@@H](CC(C)C)C(=O)N[C@@H](CCSC)C(=O)N[C@@H](Cc1c[nH]cn1)C(=O)N[C@@H](CC(N)=O)C(=O)N[C@@H](CC(C)C)C(=O)NCC(=O)N[C@@H](CCCCN)C(=O)N[C@@H](Cc1c[nH]cn1)C(=O)N[C@@H](CC(C)C)C(=O)N[C@@H](CC(N)=O)C(=O)N[C@@H](CO)C(=O)N[C@@H](CCSC)C(=O)N[C@@H](CCC(=O)O)C(=O)N[C@@H](CCCNC(=N)N)C(=O)N[C@H](C(=O)N[C@@H](CCC(=O)O)C(=O)N[C@@H](Cc1c[nH]c2ccccc12)C(=O)N[C@@H](CC(C)C)C(=O)N[C@@H](CCCNC(=N)N)C(=O)N[C@@H](CCCCN)C(=O)N[C@@H](CCCCN)C(=O)N[C@@H](CC(C)C)C(=O)N[C@@H](CCC(N)=O)C(=O)N[C@@H](CC(=O)O)C(=O)N[C@H](C(=O)N[C@@H](Cc1c[nH]cn1)C(=O)N[C@@H](CC(N)=O)C(=O)N[C@@H](Cc1ccccc1)C(=O)N[C@@H](CCCCNC(=O)c1ccc2c(c1)C1(OC2=O)c2ccc(N(C)C)cc2Oc2cc(N(C)C)ccc21)C(N)=O)C(C)C)C(C)C`, the Kd was 0.027 ± 0.012 µM (PTH1R; binding, NanoBRET; 0.02% sodium azide).
`N#Cc1cnn2ccc(-c3ccc4c(c3)CN([C@H]3CCC(=O)NC3=O)C4=O)nc12` gave a DC50 of 0.406 µM (CSNK1A1/CRBN; degrader; MOLT-4 CSNK1A1-HiBiT; 24 h).
`CSCC[C@H](NC(=O)[C@H](CC(C)C)NC(=O)[C@H](CCC(N)=O)NC(=O)[C@H](Cc1c[nH]cn1)NC(=O)[C@H](CCC(=O)O)NC(=O)[C@H](CO)NC(=O)[C@@H](NC(=O)[C@@H](N)CO)C(C)C)C(=O)N[C@@H](Cc1c[nH]cn1)C(=O)N[C@@H](CC(N)=O)C(=O)N[C@@H](CC(C)C)C(=O)NCC(=O)N[C@@H](CCCCN)C(=O)N[C@@H](Cc1c[nH]cn1)C(=O)N[C@@H](CC(C)C)C(=O)N[C@@H](CC(N)=O)C(=O)N[C@@H](CO)C(=O)N[C@@H](CCSC)C(=O)N[C@@H](CCC(=O)O)C(=O)N[C@@H](CCCNC(=N)N)C(=O)N[C@H](C(=O)N[C@@H](CCC(=O)O)C(=O)N[C@@H](Cc1c[nH]c2ccccc12)C(=O)N[C@@H](CC(C)C)C(=O)N[C@@H](CCCNC(=N)N)C(=O)N[C@@H](CCCCN)C(=O)N[C@@H](CCCCN)C(=O)N[C@@H](CC(C)C)C(=O)N[C@@H](CCC(N)=O)C(=O)N[C@@H](CC(=O)O)C(=O)N[C@H](C(=O)N[C@@H](Cc1c[nH]cn1)C(=O)N[C@@H](CC(N)=O)C(=O)N[C@@H](Cc1ccccc1)C(=O)N[C@@H](CCCCNC(=O)c1ccc2c(c1)C1(OC2=O)c2ccc(N(C)C)cc2Oc2cc(N(C)C)ccc21)C(N)=O)C(C)C)C(C)C` has a Kd of 0.064 ± 0.01 µM (PTH1R; binding, NanoBRET kinetic binding; cells; pH 7.5, together with: TMR-labelled peptide tracer).
The Kd of `CCCN(CC(=O)N(CCC)CC(=O)N(CCC)CC(=O)N(CCC)CC(=O)N(CC(N)=O)Cc1cn(CCCNC(=O)CCCOc2cccc(-c3nc4ccc(-c5nc6ccc(N7CCN(C)CC7)cc6[nH]5)cc4[nH]3)c2)nn1)C(=O)CNCc1cn(CCCNC(=O)CCCOc2cccc(-c3nc4ccc(-c5nc6ccc(N7CCN(C)CC7)cc6[nH]5)cc4[nH]3)c2)nn1` is reported as 0.06 ± 0.007 µM (herring sperm DNA; binding, fluorescence).
`COC(=O)c1c(O)cc(O)c(Cl)c1CCc1ccccc1Cc1ccccc1OC` gave a Kd of 7.8 µM (Endoplasmin (HSP90B1, Canis lupus familiaris, UniProt P41148); ligand displacement, FP).

A few entries again:
`N#Cc1cnn2ccc(-c3ccc4c(c3)CN([C@H]3CCC(=O)NC3=O)C4=O)nc12` gave a DC50 of 0.406 µM (CSNK1A1/CRBN; degrader; MOLT-4 CSNK1A1-HiBiT; 24 h).
